Experimental data gathered from unrelated publications.
Each numbered part is a random draw from the data of one study; scales do not carry over between parts. Positions count from the first letter of the parent shown.

Study 1 — method: protein binding microarray; molecule type: double-stranded DNA, one strand shown; medium: in vitro; tested at: not given; baseline: not given; direction: higher = stronger binding; measurement: E-score
Target: Histone acetyltransferase KAT6A, both winged helices, GST fusion (KAT6A, Homo sapiens, UniProt Q92794, residues 1-181)
Setting: 8-mer, flanks averaged, mean of 2 arrays, mostly near background
Construct (chain): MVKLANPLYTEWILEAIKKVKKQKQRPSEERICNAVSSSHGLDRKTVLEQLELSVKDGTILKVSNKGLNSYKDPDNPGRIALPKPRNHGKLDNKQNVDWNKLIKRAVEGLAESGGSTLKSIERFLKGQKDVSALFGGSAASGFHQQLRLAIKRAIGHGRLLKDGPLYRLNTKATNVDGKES
CACATCGG: 0.123
ACAGGGCG: 0.19
CTGAAAGC: -0.0488
ACCTTTAG: -0.112
AGAGCTGC: 0.0621
AAGTATTA: -0.207
AACCACCT: -0.173
CGGGTTAA: 0.27
CAATAGTC: -0.159
AGAGGCCA: -0.199
AAGCATCG: -0.0218
AGCAGCGC: 0.209
ATGACTAC: -0.0268
TAGAAAAA: -0.0226
CACGACGG: 0.215
AAATCTGT: -0.207

Study 2 — target: CCNB3, cyclin fold, Cln2 fusion (human); method: yeast growth competition, sequencing; medium: yeast; setting: weak parent motif; baseline: not given; direction: higher = stronger binding; measurement: normalised enrichment score
Parent: CDC6 docking peptide (human); TLKGRRLVFDNQL; partner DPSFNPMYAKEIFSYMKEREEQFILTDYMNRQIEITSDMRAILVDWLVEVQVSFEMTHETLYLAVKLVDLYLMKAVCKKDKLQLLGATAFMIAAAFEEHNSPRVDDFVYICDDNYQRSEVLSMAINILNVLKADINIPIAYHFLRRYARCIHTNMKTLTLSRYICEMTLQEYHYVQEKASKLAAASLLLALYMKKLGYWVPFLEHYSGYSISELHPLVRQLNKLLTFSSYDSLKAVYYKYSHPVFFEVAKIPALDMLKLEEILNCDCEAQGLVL
TLKGRLLVFDNQL [R6L]: 0.538
TLKGRRLVFINQL [D10I]: 0.711
TLKGERLVFDNQL [R5E]: 0.0465
TLKGRRLVFDNQK [L13K]: -0.324
TLKGGRLVFDNQL [R5G]: 0.177
TLKGRRLVFDRQL [N11R]: 0.459
TLKQRRLVFDNQL [G4Q]: 0.369
TLKGRRLVFDNDL [Q12D]: 0.201
TLKGRRLVFQNQL [D10Q]: 0.365

Study 3 — method: DHFR PCA, deep sequencing; medium: yeast; added: (+)-ABA 0.0091 µM; baseline: wild-type fitted maximum; direction: higher = stronger binding; measurement: relative binding score
Target: ABI1, truncated, D143A, DHFR fusion (Arabidopsis thaliana)
Setting: methotrexate growth selection, single substitutions
Parent: PYL1, truncated, DHFR fusion (Arabidopsis thaliana); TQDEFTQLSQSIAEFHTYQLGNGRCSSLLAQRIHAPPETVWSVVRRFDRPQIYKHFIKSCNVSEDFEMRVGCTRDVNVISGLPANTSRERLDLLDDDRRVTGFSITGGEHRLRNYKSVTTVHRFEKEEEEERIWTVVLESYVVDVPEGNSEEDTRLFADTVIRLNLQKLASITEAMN; partner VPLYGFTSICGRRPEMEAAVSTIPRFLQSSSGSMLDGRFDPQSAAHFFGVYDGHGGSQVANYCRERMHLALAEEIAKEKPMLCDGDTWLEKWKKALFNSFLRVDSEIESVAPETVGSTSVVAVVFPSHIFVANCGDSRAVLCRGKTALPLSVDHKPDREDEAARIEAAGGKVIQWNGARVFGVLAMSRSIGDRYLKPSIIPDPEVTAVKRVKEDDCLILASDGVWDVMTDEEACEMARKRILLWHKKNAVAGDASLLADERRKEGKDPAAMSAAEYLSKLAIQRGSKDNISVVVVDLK
R49I: 4.73%
V76M: 1.69%
E130I: 6.54%
V76P: -1.66%
A158Y: 31.1%
K54I: 0.736%
F47P: 5.24%
T39A: 15.3%
E151T: 25.4%
Q7I: 17.1%

Other studies, line by line
PhoQ, residues 284 288 289 292 302 303 SSTLSG — fold induction (PhoP, residues 12 14 15 18 19 VQGLL (Escherichia coli, UniProt P23836); Sort-seq, measured: YFP reporter; E. coli; PhoQ-PhoP variant library, added: 10 µM Mg2+; baseline: high Mg2+ state, higher = stronger signaling): 14.4

Excerpt of the above (study 2):
TLKGRLLVFDNQL [R6L]: 0.538
TLKGRRLVFDNQK [L13K]: -0.324
TLKGRRLVFDNDL [Q12D]: 0.201
